Measured values from different studies.
Every numbered part comes from another study and shows a few of its results, in no order. “And” joins repeats or separate records; there may be more than shown.

Block 1
Cell line: mouse MPNST tumor cells
Method: high-content immunofluorescence imaging
Measured: nuclear SOX9
Tested at: 10 µM
Time: 12 h
Notes: mean of 2 replicates
Relative to: DMSO control
Reading: higher = more nuclear SOX9
Compound	nuclear SOX9 intensity
CCN1CCCC1CNC(=O)c1cc(S(=O)(=O)CC)c(N)cc1OC (stereo not drawn)	102 % of DMSO
CCOc1ccc2ccccc2c1C(=O)N[C@@H]1C(=O)N2[C@@H]1SC(C)(C)[C@@H]2C(=O)O	93.2 % of DMSO
CC1CCc2nc(N)c(C#N)c(-c3cccnc3)c2C1 (stereo not drawn)	144 % of DMSO
COc1cc(NC(=O)c2ccc(-c3ccc(Cl)cc3)o2)cc(OC)c1	120 % of DMSO
COc1ccc(C(=O)CC(=O)c2ccc(C(C)(C)C)cc2)cc1	97.3 % of DMSO
C[N+]1(CCCCC[N+]2(C)CCCC2)CCCC1	100 % of DMSO and 94.8 % of DMSO
CC(C)[C@H](CO)Nc1nc(Nc2cc(N)cc(Cl)c2)c2ncn(C(C)C)c2n1	131 % of DMSO
CC(C)NC[C@@H](O)COc1cccc2ccccc12	110 % of DMSO
Cc1ccc(S(=O)(=O)Cc2nc(-c3ccc(C(=O)NCc4cccnc4)cc3)oc2C)cc1	93 % of DMSO
Cn1c(=O)c2nc[nH]c2n(C)c1=O	94.1 % of DMSO and 104 % of DMSO
Cc1cccc(-c2[nH]c(C(C)(C)C)nc2-c2ccc3nccnc3c2)n1	80.1 % of DMSO
N[C@H](C(=O)O)[C@H](OCc1cccc(NC(=O)c2ccc(C(F)(F)F)cc2)c1)C(=O)O	95.2 % of DMSO
Oc1cc2c(cc1O)CN(C(=S)NCCc1ccc(Cl)cc1)CCC2	107 % of DMSO
NNCCc1ccccc1	104 % of DMSO
CN(c1nccc(=O)[nH]1)C1CCN(c2nc3ccccc3n2Cc2ccc(F)cc2)CC1	108 % of DMSO
CCCCC(=O)N(Cc1ccc(-c2ccccc2-c2nnn[nH]2)cc1)[C@H](C(=O)O)C(C)C	87 % of DMSO and 96.7 % of DMSO
CNC(=O)c1ccc2c(c1)CCO[C@H]2CCN1CCN(c2ccc(C(N)=O)cc2)CC1	97 % of DMSO

Block 2
Species: mouse
Medium: microsomes or S9
Tested at: 2 µM
Time: 0.5 h
Structure (SMILES)	remaining compound
O=C1C(c2cnc3ccccc3c2)=C(c2cc(F)cc(F)c2)c2ccc(OCCN3CCS(=O)(=O)CC3)cc21	> 99.9%
c1ccc(-c2ccc3ccnc(N4CCCCC4)c3c2)cc1	0.0867%
Cc1[nH]c(=O)c2ccccc2c1C(=O)OC(C)(C)C	92.4%
O=c1cc(-c2ccccc2)oc2ccccc12	17.3%
CC(Oc1cc(-n2nc3c(c2Cl)CCCC3)c(F)cc1Cl)C(C)(C)O (stereo not drawn)	26.3%
COc1ccc(-c2cc(-c3nc4c5c(ncn4n3)CCC5)n[nH]2)cc1	24.3%
CC(C(=O)Nc1ccc2c(c1)CCC2)n1nc(-c2ccc3c(c2)OCCO3)ccc1=O (stereo not drawn)	6.84%
CN(Cc1ccccc1)Cc1cc(=O)n2nc(-c3ccc(C(C)(C)C)cc3)nc2[nH]1	60.4%
NS(=O)(=O)c1ccc(Nc2ccc3cc(S(=O)(=O)N4CCCCC4)ccc3n2)cc1	0.29%
O=C1NN=C(c2ccc(OCCN3CCOCC3)cc2)CC1c1ccc(Cl)cc1 (stereo not drawn)	24.6%
COc1ccc(Nc2nc(NCCN3CCOCC3)nc(Nc3ccc(OC)cc3)n2)cc1	16.6%
O=C(C1CCC1)N(C1CCCCC1)C1CCCCC1	0.964%
CCOC(=O)c1c(C)c(C(=O)CN(C)S(=O)(=O)c2ccccc2)c(C)n1CC	3.42%
Cc1n[nH]c(-n2ccc3nc4ccn(CCc5ccccc5)c(=O)c4cc3c2=O)n1	62%
Cc1nn(C)c2nc(NCC[C@@H]3CCCN4CCCC[C@H]34)sc12	23.4%
CS(=O)(=O)n1c(-c2ccccc2)c(C#Cc2ccccc2)c2ccccc21	> 99%
N#Cc1ccccc1COc1ccc2c(c1)OCO2	23.5%

Block 3
Target: Serine/threonine-protein kinase N1 (PKN1, Homo sapiens, UniProt Q16512)
UniProt Q16512, sequence (whole entry, looked up): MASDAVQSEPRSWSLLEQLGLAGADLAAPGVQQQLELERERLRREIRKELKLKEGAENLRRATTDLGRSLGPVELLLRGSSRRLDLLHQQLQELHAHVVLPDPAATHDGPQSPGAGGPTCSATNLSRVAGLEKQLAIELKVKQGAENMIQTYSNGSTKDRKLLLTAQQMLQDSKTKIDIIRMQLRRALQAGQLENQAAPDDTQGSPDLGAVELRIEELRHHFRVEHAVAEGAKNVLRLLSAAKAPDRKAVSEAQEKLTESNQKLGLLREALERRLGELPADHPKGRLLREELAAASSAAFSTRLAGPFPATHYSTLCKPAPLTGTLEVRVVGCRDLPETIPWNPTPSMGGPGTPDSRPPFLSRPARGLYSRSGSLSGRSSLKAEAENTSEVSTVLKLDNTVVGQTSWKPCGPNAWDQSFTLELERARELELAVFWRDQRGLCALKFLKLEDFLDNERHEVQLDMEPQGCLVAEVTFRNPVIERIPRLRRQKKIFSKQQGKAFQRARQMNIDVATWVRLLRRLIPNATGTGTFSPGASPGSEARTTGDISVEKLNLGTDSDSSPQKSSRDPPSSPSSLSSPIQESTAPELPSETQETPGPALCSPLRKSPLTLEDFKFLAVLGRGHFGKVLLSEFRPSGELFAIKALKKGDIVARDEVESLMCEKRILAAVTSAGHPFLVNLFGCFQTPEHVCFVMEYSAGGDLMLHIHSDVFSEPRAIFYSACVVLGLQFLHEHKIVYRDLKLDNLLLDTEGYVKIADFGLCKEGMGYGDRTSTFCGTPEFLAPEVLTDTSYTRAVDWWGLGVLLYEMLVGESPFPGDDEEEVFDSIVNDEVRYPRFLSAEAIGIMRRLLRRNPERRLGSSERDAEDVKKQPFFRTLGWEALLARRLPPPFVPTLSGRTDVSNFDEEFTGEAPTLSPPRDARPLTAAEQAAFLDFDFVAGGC
Effect on: enzyme activity
Action: inhibitor
Tested at: 0.5 µM
Relative to: control
SMILES	remaining activity
O=C(c1ccccc1)c1ccc(N2CCOCC2)cc1O	104%
O=C1NC(=O)/C(=C/c2ccc3c(c2)OC(F)(F)O3)S1	98.5%
O=c1c(-c2ccc(F)cc2)c(-c2ccncc2)[nH]n1-c1ccc(Cl)cc1	92.4%
CCCCc1c(-c2ccc(O)cc2)[nH]c2nccnc12	90.3%
Nc1nc(Nc2ccc(S(N)(=O)=O)cc2)nn1C(=S)Nc1c(F)cccc1F	9.7%
CNc1cc2c(Nc3cccc(Br)c3)ncnc2cn1	102%
FC(F)(F)c1ccc(/C=C/c2nc(COc3ccc(CCCCn4ccnn4)cc3)co2)cc1	97%
CC(C)(C)c1nc2c3cc[nH]c(=O)c3c3cc(F)ccc3c2[nH]1	28.3%
O=C(O)/C=C/c1cc(Br)c(Br)c(Br)c1Br	85.5%
Clc1ccc(Nc2nnc(Cc3ccncc3)c3ccccc23)cc1	95.9%
NC(=O)c1cccc(-c2cc(Nc3ccc(OC(F)(F)F)cc3)ncn2)c1	98.9%
CCN(CC)CCCCN1c2ccccc2Oc2ccc(Cl)cc21	89.6%
O=C1c2ccccc2-c2nc3nnnn3nc21	97.5%
N#C/C(=C(/N)SC1C=CC=CC1)c1cccc(C(O)c2ccncc2)c1 (stereo not drawn)	106%
CC(C)n1cnc2c(Nc3cccc(Cl)c3)nc(NCCO)nc21	101%
COc1cc2c(N3CCN(C(=O)Nc4ccc(OC(C)C)cc4)CC3)ncnc2cc1OCCCN1CCCCC1	108%
N#CC(c1ccnc(NCCc2cccnc2)n1)c1nc2ccccc2s1 (stereo not drawn)	96.3%
C[C@@H](N)[C@H]1CC[C@H](C(=O)Nc2ccncc2)CC1	41.7%
c1cc(-c2cnn3cc(-c4ccc(OCCN5CCCCC5)cc4)cnc23)ccn1	44.6%
NC(=O)c1ccc(-c2nc(-c3ccc4c(c3)OCCO4)c(-c3ccccn3)[nH]2)cc1	98.8%
CC(C)N(CCC(=O)c1ccc2ccccc2c1)Cc1ccccc1	107%
O=Nc1c(-c2c(O)[nH]c3ccccc23)[nH]c2ccccc12	87.5%

Block 4
Cell line: normal-adjacent organoid sample F
Method: CellTiter-Glo
Tested at: 1 µM
Notes: replicate mean
Relative to: DMSO
Structure (SMILES)	viability [%]
CN(C)c1ncnc(-c2ccc3nc(Nc4cc(CN5CCN(C(=O)CC(F)(F)F)CC5)ccn4)[nH]c3c2)c1Cl	101
Cc1ccccc1Oc1cc(-n2c(=O)cc(C(F)(F)F)[nH]c2=O)c2ccccc2c1Cl	132
Cc1c(N2CCNCC2)nc2ccc(Br)cc2c1C(=O)NC[C@H](CCC(=O)O)c1ccccc1Cl	88.8
CN(C(=O)c1ccccc1)c1cc(N(C)c2ccc3c(c2)CCc2ccc(C(=O)NCCN4CCOCC4)cc2C3=O)ccc1F	127
NS(=O)(=O)c1cc(NC(=O)C2(c3ccccc3Cl)CC2)ccc1Oc1cccc(Cl)c1	101
Cn1cc(Cl)c2c(Oc3c(F)cc(Nc4cc(Cl)nc(N)n4)cc3F)ccnc21	110
O=C(NCc1ncc(C(F)(F)F)cc1Cl)c1ccc2c(c1)C1(CCS(=O)(=O)CC1)[C@@H](C1CC1)N2S(=O)(=O)c1ccc(F)cc1	99.8
CN([C@@H]1CCc2c(CC(=O)O)c3ccccc3n2C1)S(=O)(=O)c1ccc(F)cc1	106
C[C@H](NC(=O)c1cnc2n1[C@](C)(Cc1ccc(C#N)cc1)C(=O)N2c1cc(Cl)c(F)c(Cl)c1)C(=O)NC1(c2ccccn2)CC1	109
O=C(N1CCS(=O)(=O)CC1)N1C[C@H](c2ccc(OC(F)(F)F)cc2)C[C@H](c2nc(C3CC3)no2)C1	106
O=C(O)c1cc(-c2ccc(C3CCNCC3)cc2)c2ccc(-c3ccc(C(F)(F)F)cc3)cc2c1	91.8
CO[C@@H](C)c1c(Nc2ccc([C@@H](N(C)C(=O)C3CCS(=O)(=O)CC3)C(F)(F)F)cc2)cnc2cc(Cl)nn12	147
Cc1ccc2[nH]c(CNCCCc3ccncc3)cc(=O)c2c1	132
CC1=C(C#N)C(c2ccc3[nH]nc(C)c3c2)C(C#N)=C(C)N1	112
CCS(=O)(=O)c1cc2cc(C[C@](O)(CC(C)(C)c3ccc(F)cc3C(N)=O)C(F)(F)F)[nH]c2cn1	112
O=C1NC(c2ccccn2)Sc2ccccc21 (stereo not drawn)	105
O=C(NS(=O)(=O)c1ccc(NCC2CCOCC2)c([N+](=O)[O-])c1)c1ccc(N2CCN(Cc3ccc(C(F)(F)F)cc3-c3ccc(Cl)cc3)CC2)cc1Oc1cnc2[nH]ccc2c1	118
CN(C)CC#Cc1ccc(OCCCc2sc(N3CCc4cccc(C(=O)Nc5nc6ccccc6s5)c4C3)nc2C(=O)O)c(F)c1	19.6
Cc1c(Oc2ccc(F)cc2)c(OC(C)C)nn1-c1ccc(C2CC2)cn1	160
CC(=O)C1=C(C)N(c2cccc(C(F)(F)F)c2)C(=O)N[C@H]1c1ccc(C#N)nc1	103
Cc1c(N2CCCC2)nc2ccc(Br)cc2c1C(=O)NC[C@H](CCC(=O)O)c1ccccc1Cl	123
O=C(NC[C@@H]1[C@H]2CN(C(=O)OCc3cc(C(F)(F)F)cc(C(F)(F)F)c3)C[C@@H]12)c1ccc2[nH]nnc2c1	97.1

For quick reference, copied from above (block 3):
SMILES	remaining activity
O=C(O)/C=C/c1cc(Br)c(Br)c(Br)c1Br	85.5%
O=Nc1c(-c2c(O)[nH]c3ccccc23)[nH]c2ccccc12	87.5%
N#CC(c1ccnc(NCCc2cccnc2)n1)c1nc2ccccc2s1 (stereo not drawn)	96.3%
O=C(c1ccccc1)c1ccc(N2CCOCC2)cc1O	104%
Nc1nc(Nc2ccc(S(N)(=O)=O)cc2)nn1C(=S)Nc1c(F)cccc1F	9.7%
O=C1c2ccccc2-c2nc3nnnn3nc21	97.5%
